# Assay results from different studies.
# Each line is one published result; not all experiments were run side by side. ± marks the error that the study gave.
# DRD4: D(4) dopamine receptor (DRD4, Homo sapiens, UniProt P21917)
# UniProt P21917, sequence (whole entry, looked up): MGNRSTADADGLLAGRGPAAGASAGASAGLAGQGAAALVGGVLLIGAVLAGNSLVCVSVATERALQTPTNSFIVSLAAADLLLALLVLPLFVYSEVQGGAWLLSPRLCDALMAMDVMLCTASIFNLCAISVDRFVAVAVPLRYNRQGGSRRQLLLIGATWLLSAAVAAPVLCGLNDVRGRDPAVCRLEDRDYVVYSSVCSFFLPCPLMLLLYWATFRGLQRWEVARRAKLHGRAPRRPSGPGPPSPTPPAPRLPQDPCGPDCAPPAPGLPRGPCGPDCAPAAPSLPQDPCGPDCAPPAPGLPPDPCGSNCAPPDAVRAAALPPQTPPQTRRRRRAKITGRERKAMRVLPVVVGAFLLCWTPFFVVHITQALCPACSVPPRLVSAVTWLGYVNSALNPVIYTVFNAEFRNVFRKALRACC
# GSPT1: Eukaryotic peptide chain release factor GTP-binding subunit ERF3A (GSPT1, Homo sapiens, UniProt P15170)
# UniProt P15170, sequence (whole entry, looked up): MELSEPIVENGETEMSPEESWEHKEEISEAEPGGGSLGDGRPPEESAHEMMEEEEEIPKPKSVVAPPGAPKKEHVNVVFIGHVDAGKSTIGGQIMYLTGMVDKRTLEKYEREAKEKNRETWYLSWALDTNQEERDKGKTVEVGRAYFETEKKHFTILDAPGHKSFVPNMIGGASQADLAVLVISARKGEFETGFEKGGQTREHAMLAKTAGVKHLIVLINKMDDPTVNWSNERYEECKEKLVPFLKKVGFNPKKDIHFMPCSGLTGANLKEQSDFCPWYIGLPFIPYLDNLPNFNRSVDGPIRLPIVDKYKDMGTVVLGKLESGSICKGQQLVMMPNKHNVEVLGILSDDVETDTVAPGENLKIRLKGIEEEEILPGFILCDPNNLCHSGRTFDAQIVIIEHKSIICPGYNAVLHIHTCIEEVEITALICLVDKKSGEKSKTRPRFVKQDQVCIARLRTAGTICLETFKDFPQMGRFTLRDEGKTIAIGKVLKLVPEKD
# UniProt P06493, sequence (whole entry, looked up): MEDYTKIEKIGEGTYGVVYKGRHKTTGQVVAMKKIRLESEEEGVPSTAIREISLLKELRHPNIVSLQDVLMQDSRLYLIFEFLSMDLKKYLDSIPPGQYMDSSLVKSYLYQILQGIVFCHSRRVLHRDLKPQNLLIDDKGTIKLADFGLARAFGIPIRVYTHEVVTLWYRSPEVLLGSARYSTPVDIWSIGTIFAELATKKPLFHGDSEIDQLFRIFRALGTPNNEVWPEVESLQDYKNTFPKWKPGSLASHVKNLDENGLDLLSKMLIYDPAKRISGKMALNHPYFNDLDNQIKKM
# UniProt P31749, sequence (whole entry, looked up): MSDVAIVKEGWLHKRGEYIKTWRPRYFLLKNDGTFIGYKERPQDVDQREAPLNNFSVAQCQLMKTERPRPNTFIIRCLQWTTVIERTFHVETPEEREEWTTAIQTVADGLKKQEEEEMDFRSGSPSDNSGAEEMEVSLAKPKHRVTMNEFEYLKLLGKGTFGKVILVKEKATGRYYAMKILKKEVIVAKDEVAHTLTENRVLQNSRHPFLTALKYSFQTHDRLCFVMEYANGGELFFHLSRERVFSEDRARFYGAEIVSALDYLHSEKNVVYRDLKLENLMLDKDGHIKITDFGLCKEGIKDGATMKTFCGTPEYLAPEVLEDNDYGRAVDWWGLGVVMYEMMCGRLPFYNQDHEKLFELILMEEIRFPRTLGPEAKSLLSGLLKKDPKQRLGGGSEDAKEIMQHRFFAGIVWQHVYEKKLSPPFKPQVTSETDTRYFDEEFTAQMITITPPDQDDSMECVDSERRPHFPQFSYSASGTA
# UniProt Q9BQB4, sequence (whole entry, looked up): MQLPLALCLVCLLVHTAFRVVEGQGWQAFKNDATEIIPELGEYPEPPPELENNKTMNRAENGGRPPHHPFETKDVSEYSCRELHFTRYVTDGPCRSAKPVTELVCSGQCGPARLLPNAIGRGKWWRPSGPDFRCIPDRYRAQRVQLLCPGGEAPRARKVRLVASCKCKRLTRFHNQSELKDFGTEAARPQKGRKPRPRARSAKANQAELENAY
# UniProt P06239, sequence (whole entry, looked up): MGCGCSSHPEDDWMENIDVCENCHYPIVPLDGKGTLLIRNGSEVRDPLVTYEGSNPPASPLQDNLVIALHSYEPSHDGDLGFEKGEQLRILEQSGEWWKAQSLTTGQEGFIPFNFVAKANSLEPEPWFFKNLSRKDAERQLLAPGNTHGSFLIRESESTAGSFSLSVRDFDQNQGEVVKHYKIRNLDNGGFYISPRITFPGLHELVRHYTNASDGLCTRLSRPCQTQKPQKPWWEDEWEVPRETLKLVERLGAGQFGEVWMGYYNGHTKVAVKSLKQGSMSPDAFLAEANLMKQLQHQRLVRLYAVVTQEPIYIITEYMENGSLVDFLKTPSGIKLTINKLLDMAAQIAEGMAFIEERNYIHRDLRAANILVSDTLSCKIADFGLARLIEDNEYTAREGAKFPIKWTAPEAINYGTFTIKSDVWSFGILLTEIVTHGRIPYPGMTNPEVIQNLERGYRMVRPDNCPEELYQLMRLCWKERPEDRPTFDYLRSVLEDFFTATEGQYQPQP
# UniProt P21554, sequence (whole entry, looked up): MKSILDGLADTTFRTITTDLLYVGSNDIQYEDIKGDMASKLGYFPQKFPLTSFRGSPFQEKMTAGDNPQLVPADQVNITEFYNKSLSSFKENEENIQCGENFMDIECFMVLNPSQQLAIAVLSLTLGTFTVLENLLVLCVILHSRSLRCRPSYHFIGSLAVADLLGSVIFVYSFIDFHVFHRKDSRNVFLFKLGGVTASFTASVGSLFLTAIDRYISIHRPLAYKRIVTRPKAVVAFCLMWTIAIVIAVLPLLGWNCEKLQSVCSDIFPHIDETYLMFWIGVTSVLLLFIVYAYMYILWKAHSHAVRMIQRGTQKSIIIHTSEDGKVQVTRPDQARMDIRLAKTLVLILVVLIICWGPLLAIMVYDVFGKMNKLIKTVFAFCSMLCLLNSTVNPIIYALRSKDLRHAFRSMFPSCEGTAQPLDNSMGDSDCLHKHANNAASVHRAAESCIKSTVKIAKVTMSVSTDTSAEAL
# UniProt Q9H0K1, sequence (whole entry, looked up): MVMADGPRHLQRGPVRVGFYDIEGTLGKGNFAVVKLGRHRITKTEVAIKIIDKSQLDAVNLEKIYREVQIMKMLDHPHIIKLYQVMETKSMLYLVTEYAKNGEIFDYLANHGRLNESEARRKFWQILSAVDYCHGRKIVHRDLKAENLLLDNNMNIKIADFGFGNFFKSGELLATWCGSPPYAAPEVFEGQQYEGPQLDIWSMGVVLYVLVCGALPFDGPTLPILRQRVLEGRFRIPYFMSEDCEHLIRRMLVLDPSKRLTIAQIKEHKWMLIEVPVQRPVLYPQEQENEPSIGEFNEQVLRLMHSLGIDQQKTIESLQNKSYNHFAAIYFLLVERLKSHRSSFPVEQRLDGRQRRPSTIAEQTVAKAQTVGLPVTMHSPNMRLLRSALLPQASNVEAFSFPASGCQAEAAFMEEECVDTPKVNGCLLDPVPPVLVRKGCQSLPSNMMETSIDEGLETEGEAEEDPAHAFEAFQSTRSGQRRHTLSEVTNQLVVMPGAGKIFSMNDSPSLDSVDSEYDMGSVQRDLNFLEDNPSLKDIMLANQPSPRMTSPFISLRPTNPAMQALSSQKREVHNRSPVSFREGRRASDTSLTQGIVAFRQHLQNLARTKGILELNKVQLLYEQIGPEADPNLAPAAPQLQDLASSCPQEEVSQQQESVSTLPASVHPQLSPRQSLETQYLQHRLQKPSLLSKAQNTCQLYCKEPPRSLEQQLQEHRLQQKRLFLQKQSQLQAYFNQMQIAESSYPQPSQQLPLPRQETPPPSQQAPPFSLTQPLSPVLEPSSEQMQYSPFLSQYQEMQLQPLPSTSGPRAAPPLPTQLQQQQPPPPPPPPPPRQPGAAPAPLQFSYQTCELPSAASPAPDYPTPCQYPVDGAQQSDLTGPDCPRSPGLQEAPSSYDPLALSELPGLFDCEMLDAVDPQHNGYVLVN
# UniProt P35348, sequence (whole entry, looked up): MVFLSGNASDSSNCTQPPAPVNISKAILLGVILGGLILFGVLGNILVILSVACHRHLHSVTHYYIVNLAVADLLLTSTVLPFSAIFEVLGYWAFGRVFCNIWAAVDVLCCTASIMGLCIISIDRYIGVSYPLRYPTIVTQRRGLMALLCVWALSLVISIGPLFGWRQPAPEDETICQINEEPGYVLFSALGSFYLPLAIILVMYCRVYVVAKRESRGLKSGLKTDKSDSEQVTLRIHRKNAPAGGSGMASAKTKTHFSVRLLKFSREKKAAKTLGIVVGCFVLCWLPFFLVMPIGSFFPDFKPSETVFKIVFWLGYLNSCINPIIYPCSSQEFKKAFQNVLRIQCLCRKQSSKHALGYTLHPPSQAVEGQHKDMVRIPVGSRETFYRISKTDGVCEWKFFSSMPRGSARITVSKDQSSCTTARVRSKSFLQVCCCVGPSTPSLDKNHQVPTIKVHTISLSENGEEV
# UniProt Q96SW2, sequence (whole entry, looked up): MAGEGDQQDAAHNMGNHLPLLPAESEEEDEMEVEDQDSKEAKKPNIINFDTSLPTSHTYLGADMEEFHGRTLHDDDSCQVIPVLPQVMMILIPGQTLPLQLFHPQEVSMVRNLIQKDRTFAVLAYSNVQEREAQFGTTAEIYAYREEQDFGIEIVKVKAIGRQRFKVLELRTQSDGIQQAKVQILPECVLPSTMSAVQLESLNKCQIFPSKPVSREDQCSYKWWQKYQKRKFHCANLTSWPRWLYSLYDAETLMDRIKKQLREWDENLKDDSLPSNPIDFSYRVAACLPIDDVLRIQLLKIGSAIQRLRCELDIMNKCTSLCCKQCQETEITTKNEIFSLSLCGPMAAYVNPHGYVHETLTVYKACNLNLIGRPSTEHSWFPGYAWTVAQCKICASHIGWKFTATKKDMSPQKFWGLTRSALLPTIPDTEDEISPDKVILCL
Compound,tested on,test,system,setting,scale,measurement,result
C=CC(=O)Nc1cccc(Cn2ncc3cnc(Nc4cnn(CCOC)c4)nc32)c1,WEE2 human,"binding, KINOMEscan",,100 nM,lower = stronger binding,percent of control,100%
CCN(CC)CC(=O)Nc1cccc(-n2cc(-c3ccc4ccc(-c5cn(-c6cccc(NC(=O)CN(CC)CC)c6)nn5)cc4c3)nn2)c1,"RAC-alpha serine/threonine-protein kinase (AKT1, Homo sapiens, UniProt P31749)","enzyme activity, inhibitor",,,,IC50,> 10000 nM
Nc1ncc(-c2cc(-c3cnn(CC(F)(F)F)c3)ncc2F)nc1C(=O)NC1CNCC(F)C1 (stereo not drawn),WEE2,KINOMEscan,,1 µM,reference: DMSO control,remaining binding,79%
CCCC[C@H](NC(=O)COCCOCCNC(=O)CN1CCN(CC(=O)O)CCN(CC(=O)O)CC1)C(=O)N[C@H]1CC(=O)NCCCC[C@@H](C(N)=O)NC(=O)[C@H](Cc2c[nH]c3ccccc23)NC(=O)[C@H](CCCNC(=N)N)NC(=O)[C@@H](Cc2ccccc2)NC(=O)[C@H](Cc2c[nH]cn2)NC1=O [technetium-99m labelled],,,"C57 mouse, heart","intravenous, 0.037 MBq, 2 h",,tissue uptake,0.13 ± 0.04 %ID/g
Cn1ncc2cc(CN3CCC(F)(F)C(COc4ccc(C#N)c(F)c4)C3)ccc21 (stereo not drawn),DRD4,"ligand displacement, radioligand",,,,Ki,3.8 nM
CCc1c(C(=O)Nc2ccc3c(c2)CN(C2CCC(=O)NC2=O)C3=O)[nH]c2c(NC(C)=O)cccc12 (stereo not drawn),GSPT1,"protein level, degrader, luciferase",,,,DC50,> 10000 nM
CCc1nc2cc3ccccc3cc2cc1C(=O)N[C@@H](CCCCN)C(=O)N[C@@H](C/C=C\C[C@H](NC(=O)[C@H](CCCCN)NC(=O)c1cc2cc3ccccc3cc2nc1CC)C(=O)N1CCC[C@H]1C(=O)NCCCN)C(=O)N1CCC[C@H]1C(=O)NCCCN,(CUG)10 RNA,SPR,,,,Kd,91.8 nM
Cn1ncc2cc(-c3cncc(Cl)c3N3CCC4(CCNC4=O)CC3)ccc21,"Cyclin-dependent kinase 1 (CDK1, Homo sapiens, UniProt P06493)",cell-free assay,,lysate,,Kd,19500 nM
Fc1ccc(OCC2CN(Cc3cn4ccccc4n3)CCC2(F)F)cc1F (stereo not drawn),DRD4,"ligand displacement, radioligand",,cell membranes,,Ki,46.8 nM
COC1CN([C@H]2CC[C@H]([C@@]3(C)Oc4c(Cl)cc(C(=O)NCc5c(SC)cc(C)[nH]c5=O)c(C)c4O3)CC2)C1,,"RNA-seq, measured: RIDA mouse homolog","mouse, HT-1376 xenograft, whole blood",dose not given,reference: vehicle,log2 fold change,0.0447
CCc1nc2cc3ccccc3cc2cc1C(=O)N1CCC[C@H]1C(=O)N[C@@H](CCC/C=C/CCC[C@H](NC(=O)[C@@H]1CCCN1C(=O)c1cc2cc3ccccc3cc2nc1CC)C(=O)N[C@@H](CCCCN)C(=O)NCCCN)C(=O)N[C@@H](CCCCN)C(=O)NCCCN,(CUG)10 RNA,SPR,,,,Kd,29 nM
CCCC[C@H](NC(=O)CCCCCCCNC(=O)CN1CCN(CC(=O)O)CCN(CC(=O)O)CC1)C(=O)N[C@H]1CC(=O)NCCCC[C@@H](C(N)=O)NC(=O)[C@H](Cc2c[nH]c3ccccc23)NC(=O)[C@H](CCCNC(=N)N)NC(=O)[C@@H](Cc2ccccc2)NC(=O)[C@H](Cc2c[nH]cn2)NC1=O [technetium-99m labelled],,,"C57 mouse, liver","intravenous, 0.037 MBq, 2 h",,tissue uptake,0.5 ± 0.11 %ID/g
O=C(O)CC12CC3CC(CC(C3)C1)C2,"DNA topoisomerase 2-binding protein 1, BRCT7-8 domains; R1314A (TOPBP1, Homo sapiens, UniProt Q92547, R1314A)",NMR titration,,not saturated,,Kd,> 400000 nM
CC(=O)N[C@@H]1[C@@H](O[C@@H]2O[C@H](C(=O)O)[C@@H](O[C@@H]3O[C@H](CO)[C@@H](OS(=O)(=O)O)[C@H](O[C@@H]4O[C@H](C(=O)O)[C@@H](OS(=O)(=O)O)[C@H](OS(=O)(=O)O)[C@H]4OS(=O)(=O)O)[C@H]3NC(C)=O)[C@H](OS(=O)(=O)O)[C@H]2OS(=O)(=O)O)[C@H](OS(=O)(=O)O)[C@@H](CO)O[C@H]1N=[N+]=[N-],"Sclerostin (SOST, Homo sapiens, UniProt Q9BQB4)",fluorescence polarization competition,,"corrected value, with: TAMRA-labelled probe",,EC50,28300 ± 2000 nM
CCc1c(C(=O)Nc2ccc3c(c2)CN(C2CCC(=O)NC2=O)C3=O)[nH]c2c(CO)cccc12 (stereo not drawn),"LCK/CRBN (Homo sapiens, UniProt P06239+Q96SW2)","degrader, HiBiT, measured: LCK-HiBiT",KOPTK1,24 h,,DC50,2.7 ± 0.6 nM
Fc1ccc(OCC2CN(Cc3cn4nc(Cl)ccc4n3)CCC2(F)F)cc1F (stereo not drawn),DRD4,"ligand displacement, radioligand",,cell membranes,,Ki,2.57 nM
CNC[C@H](O)c1cccc(OCCOCCOCC#Cc2cccc(Cn3c(-c4ccccc4)c(-c4ccccc4)c4c(=N)n([C@H]5CC[C@H](O)CC5)cnc43)c2)c1,"Alpha-1A adrenergic receptor (ADRA1A, Homo sapiens, UniProt P35348)","degrader, immunoblotting",PC-3,24 h,,DC50,53.5 nM
CNS(=O)(=O)Nc1nccc(Cc2c(C)c3ccc(Oc4ncccc4F)cc3oc2=O)c1F,U-118-MG,cell viability,,7 days,,IC50,220 nM
Fc1ccc(OCC2CN(Cc3ncc4ccccn34)CCC2(F)F)cc1F (stereo not drawn),DRD4,"ligand displacement, radioligand",,cell membranes,,Ki,135 nM
CN1CCCNC(=O)c2cccc(c2)C(=O)NCCCN(C)CCCNc2cccc3c2C(=O)c2cccc(c2C3=O)NCCC1,SAS,"RNA-Seq, measured: SSR2 mRNA",,"5 µM, 24 h",reference: untreated cells,log2 fold change,-2.25
Cc1nn(-c2cccc(N)c2)c(=O)c2cnc(Nc3ccc(N4CCNCC4)cc3)nc12,"Serine/threonine-protein kinase SIK2 (SIK2, Homo sapiens, UniProt Q9H0K1)","enzyme activity, inhibitor",,,,IC50,331 nM
Cn1ncc2cc(CN3CCC(F)(F)C(COc4ccc(F)c(F)c4)C3)ccc21 (stereo not drawn),DRD4,"ligand displacement, radioligand",,cell membranes,,Ki,10.8 nM
C=C(NC(=O)c1csc(-c2nc3c(cc2O)-c2nc(cs2)C(=O)NC(C(C)O)C(=O)NC(=C(C)OC)c2nc(cs2)C(=O)NC2c4nc(cs4)C(=O)NC(COC(=O)c4c5c6c(cccc6n4O)COC(=O)C(OC4CC(C)(O)C(N(C)C)C(C)O4)C2OC5)c2nc-3cs2)n1)C(N)=O (stereo not drawn),,,"cynomolgus monkey, both sexes, plasma","intravenous infusion, 3 mg/kg multiple doses, day 7",,half-life,5.98 h
Cn1ncc2cc(CN3CCC(F)(F)C(COc4ccc(F)cc4)C3)ccc21 (stereo not drawn),DRD4,"binding, radioligand displacement",HEK293 cell membranes,"WuXi AppTec, with: [3H]N-methylspiperone",,Ki,1 nM
Cc1c[nH]c2nccc(-c3ccc(C(=O)N[C@@H]4c5c(F)cc(C(F)F)cc5C[C@@H]4O)cn3)c12,"Non-receptor tyrosine-protein kinase TYK2, JH1 (TYK2, Homo sapiens, UniProt P29597)","binding, competition with immobilised ligand",,,,Kd,99.5 nM
C=C1CC[C@H](OCCCNC(=O)CCOCCOCCOCCOCCOCCOCCOCCOCCOCCOCCOCCOCCOCCOCCOCCOCCOCCOCCOCCOCCOCCOCCOCCOCCOCCOCCOCCOCCOCCOCCOCCOCCOCCOCCOCCOCCNC(=O)CCN2C(=O)CC(SC[C@H](NC(=O)[C@H](Cc3ccccc3)NC(=O)[C@H](CC(N)=O)NC(=O)[C@H](Cc3c[nH]cn3)NC(=O)[C@@H](NC(=O)[C@H](CC(=O)O)NC(=O)[C@H](CCC(N)=O)NC(=O)[C@H](CC(C)C)NC(=O)[C@H](CCCCN)NC(=O)[C@H](CCCCN)NC(=O)[C@H](CCCNC(=N)N)NC(=O)[C@H](CC(C)C)NC(=O)[C@H](Cc3c[nH]c4ccccc34)NC(=O)[C@H](CCC(=O)O)NC(=O)[C@@H](NC(=O)[C@H](CCCNC(=N)N)NC(=O)[C@H](CCC(=O)O)NC(=O)[C@H](CCSC)NC(=O)[C@H](CO)NC(=O)[C@H](CC(N)=O)NC(=O)[C@H](CC(C)C)NC(=O)[C@H](Cc3c[nH]cn3)NC(=O)[C@H](CCCCN)NC(=O)CNC(=O)[C@H](CC(C)C)NC(=O)[C@H](CC(N)=O)NC(=O)[C@H](Cc3c[nH]cn3)NC(=O)[C@H](CCSC)NC(=O)[C@H](CC(C)C)NC(=O)[C@H](CCC(N)=O)NC(=O)[C@@H](NC(=O)[C@H](CCC(=O)O)NC(=O)[C@H](CO)NC(=O)[C@@H](NC(=O)[C@@H](N)CO)C(C)C)[C@@H](C)CC)C(C)C)C(C)C)C(=O)O)C2=O)C/C1=C/C=C1\CCC[C@]2(C)[C@@H]([C@H](C)CCCC(C)(C)O)CC[C@@H]12 (stereo partly drawn),,,"male cynomolgus monkey, plasma","subcutaneous, 0.007 mg/kg, single dose",,clearance,0.111 mL/min/kg
Cc1ncsc1-c1ccc(C(C)NC(=O)C2CC(O)CN2C(=O)C(NC(=O)CCCCCCCCCCN2CCCC(Nc3ncc(Cl)c(Nc4ccccc4S(=O)(=O)C(C)C)n3)C2)C(C)(C)C)cc1 (stereo not drawn),22Rv1,"RNA-seq, measured: ZNF610 mRNA",,concentration not given,reference: DMSO,log2 fold change,-1.97
CCOC(=O)C(CC)(CCCSCCCCCCNc1ccc([N+](=O)[O-])c2nonc12)NC(=O)c1ccc(C2CC2)c(Cc2ccc(F)cc2)n1 (stereo not drawn),"Cannabinoid receptor 1 (CNR1, Homo sapiens, UniProt P21554)","cAMP, agonist",,,,EC50,928 nM
CCn1nc(Cl)c2c1-c1cnc(N)c(c1)O[C@H](C)c1cc(F)ccc1-c1nn(C)cc1C2,"Activated CDC42 kinase 1 (TNK2, Homo sapiens, UniProt Q07912)","enzyme activity, inhibitor, radiometric",,,,IC50,170 nM
Cn1ncc2cc(CN3CCC(F)(F)C(COc4cccc(F)c4)C3)ccc21 (stereo not drawn),DRD4,"ligand displacement, radioligand",,,,Ki,3 nM
CCc1nc2cc3ccccc3cc2cc1C(=O)N1CCC[C@H]1C(=O)N[C@@H](C/C=C/C[C@H](NC(=O)[C@@H]1CCCN1C(=O)c1cc2cc3ccccc3cc2nc1CC)C(=O)N[C@@H](CCCCN)C(=O)NCCCN)C(=O)N[C@@H](CCCCN)C(=O)NCCCN,(CUG)10 RNA,SPR,,,,Kd,88 nM
CCc1c(C(=O)Nc2ccc3c(c2)CN(C2CCC(=O)NC2=O)C3=O)[nH]c2c(CN)cccc12 (stereo not drawn),GSPT1,"protein level, degrader, luciferase",,,,DC50,> 10000 nM
O=C1NC2(CC2)COc2ncc(F)cc2[C@H]2COCCN2c2ccn3ncc1c3n2,Salmonella typhimurium,Ames test,TA98,"1500 µg/plate, 48 h, with: rat liver S9",,revertant colonies,24 ± 3 revertants/plate

# Excerpt of the above:
Compound,tested on,test,system,setting,scale,measurement,result
Cn1ncc2cc(-c3cncc(Cl)c3N3CCC4(CCNC4=O)CC3)ccc21,"Cyclin-dependent kinase 1 (CDK1, Homo sapiens, UniProt P06493)",cell-free assay,,lysate,,Kd,19500 nM
Fc1ccc(OCC2CN(Cc3cn4ccccc4n3)CCC2(F)F)cc1F (stereo not drawn),DRD4,"ligand displacement, radioligand",,cell membranes,,Ki,46.8 nM
COC1CN([C@H]2CC[C@H]([C@@]3(C)Oc4c(Cl)cc(C(=O)NCc5c(SC)cc(C)[nH]c5=O)c(C)c4O3)CC2)C1,,"RNA-seq, measured: RIDA mouse homolog","mouse, HT-1376 xenograft, whole blood",dose not given,reference: vehicle,log2 fold change,0.0447
CCc1nc2cc3ccccc3cc2cc1C(=O)N1CCC[C@H]1C(=O)N[C@@H](CCC/C=C/CCC[C@H](NC(=O)[C@@H]1CCCN1C(=O)c1cc2cc3ccccc3cc2nc1CC)C(=O)N[C@@H](CCCCN)C(=O)NCCCN)C(=O)N[C@@H](CCCCN)C(=O)NCCCN,(CUG)10 RNA,SPR,,,,Kd,29 nM
CCCC[C@H](NC(=O)CCCCCCCNC(=O)CN1CCN(CC(=O)O)CCN(CC(=O)O)CC1)C(=O)N[C@H]1CC(=O)NCCCC[C@@H](C(N)=O)NC(=O)[C@H](Cc2c[nH]c3ccccc23)NC(=O)[C@H](CCCNC(=N)N)NC(=O)[C@@H](Cc2ccccc2)NC(=O)[C@H](Cc2c[nH]cn2)NC1=O [technetium-99m labelled],,,"C57 mouse, liver","intravenous, 0.037 MBq, 2 h",,tissue uptake,0.5 ± 0.11 %ID/g
